# Measured values from different studies.
# Lines come from different studies, so protocols differ. “And” joins repeats or separate records; there may be more than shown. ± gives the spread as reported.
Structure (SMILES),assay,system,conditions,Tmax
C[C@@](Cc1ccc(O)c(O)c1)(NN)C(=O)O,refers to: levodopa,"healthy human volunteers, plasma","subcutaneous, 24 h infusion, median, crossover",20 h
OCc1ncc2n1-c1ccc(Cl)cc1C(c1ccccc1F)=NC2,,"human, plasma","7.5 mg midazolam, day 19, median, metabolite of midazolam, added: midazolam 7.5 mg alone",0.5 h
O=C(O)C(O)(c1cccs1)c1cccs1,refers to: metabolite,"human, plasma","oral, 2 mg once daily, 5 days, median",3 h
OCc1ncc2n1-c1ccc(Cl)cc1C(c1ccccc1F)=NC2,CYP3A4 probe metabolite,"human, plasma","oral, 2 mg midazolam, probe cocktail",≤ 1 h
C[C@]1(CO)Cc2ncn(-c3ccc(C#N)c(Cl)c3)c2C(=O)O1,,human,"oral, 10 mg, fasted, single dose, median",1 h
O[C@H]1CCCN[C@@H]1CCCn1cnc2c(Cl)c(Cl)ccc21,,"healthy human, plasma","oral, 150 mg twice daily, steady state",4 h
O=C(O)C(F)(F)C(F)(F)C(F)(F)C(F)(F)C(F)(F)C(F)(F)C(F)(F)F,two-compartment model,"human, plasma","oral, 50 mg single dose, geometric mean",3 h
CCCCCCCCCCC(=O)O[C@H]1CC[C@H]2[C@@H]3CCC4=CC(=O)CC[C@]4(C)[C@H]3CC[C@]12C,refers to: testosterone,"human, plasma","oral, 237 mg",8 h and 4 h
CCOC(=O)C1=C(CN2CCOCC2)NC(c2nccs2)=NC1c1ccc(F)cc1Br (stereo not shown),,"human, healthy",high-fat diet,3.17 h
C=C(C)[C@@H]1CC[C@]2(NCCN3CCS(=O)(=O)CC3)CC[C@]3(C)[C@H](CC[C@@H]4[C@@]5(C)CC=C(C6=CC[C@@](COc7ncccc7C#N)(C(=O)O)CC6)C(C)(C)[C@@H]5CC[C@]43C)[C@@H]12,,"human, fed","oral, 100 mg tablet, median",8.42 h
COC[C@@H](NC(C)=O)C(=O)NCc1ccccc1,non-compartmental analysis,"human healthy male, plasma","oral, 100 mg single",1 h
OCc1ncc2n1-c1ccc(Cl)cc1C(c1ccccc1F)=NC2,,human,"dose not given, metabolite of midazolam, added: midazolam alone",0.51 h
OCc1ncc2n1-c1ccc(Cl)cc1C(c1ccccc1F)=NC2,,"healthy human volunteers, plasma","5 mg single dose, day 1, fed, given alone",2 h
OCc1ncc2n1-c1ccc(Cl)cc1C(c1ccccc1F)=NC2,,"humans, plasma","3 mg of midazolam, midazolam alone",1.5 h
O=c1ccc2ncc(=O)n3c2n1C[C@H]3CN1CCC(NCc2cc3c(cn2)OCCC3)CC1,,"healthy human volunteers, plasma","oral, 1500 mg single dose, median, alone",2.5 h
C[C@H](NC(=O)c1c(C(F)F)nn(C)c1Oc1cccc(C(F)(F)F)c1)c1ccc(C(=O)O)cc1,,"human, plasma","500 mg, cycle 1 day 8, median",2 h
CC(=O)c1c(C)c2cnc(Nc3ccc(C4CCN(CCS(C)(=O)=O)CC4)cn3)nc2n(C2CCCC2)c1=O,,"human, plasma","oral, 50 mg twice daily, day 1, single dose, added: letrozole",2 h
N.N.O=C([O-])C1(C(=O)[O-])CCC1.[Pt+2],refers to: non-protein-bound platinum,"human, plasma ultrafiltrate","target AUC 2, median",0.5 h
OCc1ncc2n1-c1ccc(Cl)cc1C(c1ccccc1F)=NC2,,"human, plasma","oral, 2 mg midazolam, day 1, midazolam alone, median",0.5 h
C[C@@H]1CC[C@H]2[C@@H](C)C(=O)O[C@@H]3O[C@@]4(C)CC[C@@H]1[C@]32OO4,,"human, male, plasma","oral, dose not given, day 2",1.5 ± 1.3 h
COc1cc(C(=O)NC2CCN(C)CC2)c(F)cc1Nc1ncc(C(F)(F)F)c(Oc2cccc3c2C(=O)N(C)C3)n1,,"human patients, plasma","oral, 100 mg single dose, median",2.01 h
COc1ccc(C[C@@H]2NC(=O)[C@H]([C@@H](C)O)NC(=O)[C@@H]3[C@@H]4CCN3C(=O)[C@@H]3Cc5cn(c6ccc(F)cc56)CCCCCCN(Cc5ccc(cc5)CCNC(=O)[C@]5(C)CCCN5C2=O)C(=O)CCC(=O)N[C@@H](C)C(=O)N[C@H](CNC(=O)CCCCC[N+](C)(C)C)C(=O)N[C@@H](Cc2cccc(c2)CNC(=O)CO4)C(=O)N3)cc1,,"human, plasma","oral, 40 mg, high-fat breakfast 30 min before, added: sodium caprate 720 mg",8.08 h
